# Measured values collected from several papers.
# Protocols differ between the studies behind these lines. ± marks the error that the study gave.
SMILES,assay,test system,conditions,how to read,Cmax
O=C(c1cccnc1-c1ccncc1)N1CCC(O)(Cc2ccccc2)CC1,,"healthy human, plasma","oral, 300 mg once daily, day 1, arithmetic mean",,2020 ng/mL
COc1cc(N2CCC(N3CCN(C)CC3)CC2)ccc1Nc1ncc(Cl)c(Nc2ccccc2P(C)(C)=O)n1,,"healthy human subjects, fasted, plasma","oral, 180 mg",,743 ng/mL
CCN(c1cc(-c2ccc(CN3CCOCC3)cc2)cc(C(=O)NCc2c(C)cc(C)[nH]c2=O)c1C)C1CCOCC1,,"human, plasma","oral, 800 mg twice daily, multiple doses, cycle 1 day 15",,1290 ng/mL
COC(=O)c1ccc2c(c1)NC(=O)/C2=C(\Nc1ccc(N(C)C(=O)CN2CCN(C)CC2)cc1)c1ccccc1,,"human, hepatic impairment Child-Pugh A, plasma","oral, 100 mg single dose, fed, adjusted geometric mean",,20.5 ng/mL
O=C(c1ccc(OCCN2CCCCC2)cc1)c1c(-c2ccc(O)cc2)sc2cc(O)ccc12,,"healthy humans, plasma","oral, 60 mg, with: acute green tea",,0.13 nM
Cc1ccc(C(=O)NC2CC2)cc1-n1ncc(C(=O)c2cccc(C#N)c2)c1N,,healthy human,"oral, 14 mg single, geometric mean",,111 ng/mL
O=C(Cc1cccc(OC(F)(F)F)c1)Nc1ccc(CCCCc2nnc(NC(=O)Cc3ccccn3)s2)nn1,,"human patients, plasma","oral, 400 mg three times daily fasted, cycle 1 day 15 steady state",,818 ng/mL
O=C(CCCCCCC(=O)Nc1ccccc1)NO,median,"human patients, serum","oral, 100 mg three times daily, 14-day and 3-day cohorts",,331 to 445 nM
Cc1cccc(C)c1N(CC(=O)Nc1ccc(-c2ncon2)cc1)C(=O)C1CCS(=O)(=O)CC1,,"human male, plasma","oral, 400 mg single dose, geometric mean, alone",,1850 ng/mL
CCCNS(=O)(=O)Nc1ncnc(OCCOc2ncc(Br)cn2)c1-c1ccc(Br)cc1,,human,"oral, 10 mg, free combination, geometric mean, with: EU-sourced tadalafil 40 mg",,165 ng/mL
O=C(NC[C@H](O)CO)c1ccncc1Nc1ccc(I)cc1F,,human,"oral, 60 mg, single dose with FOLFIRI",,386 ng/mL
CC(C)(Sc1ccncc1-c1ccc(C#N)c2ccccc12)C(=O)O,,"human, plasma","oral, 15 mg, with: febuxostat 40 mg",,21.2 ng/mL
CCN1CCN(Cc2ccc(Nc3ncc(F)c(-c4cc(F)c5nc(C)n(C(C)C)c5c4)n3)nc2)CC1,,"human patients, plasma","oral, 150 mg single, geometric mean",,123 ng/mL
C=CC(=O)Nc1cc(Nc2ncc(C(=O)OC(C)C)c(-c3cn(C)c4ccccc34)n2)c(OC)cc1N(C)CCN(C)C,,"human, fasted","oral, 80 mg single dose, arithmetic mean",,17.6 ng/mL
CC[C@@]1(O)C(=O)OCc2c1cc1n(c2=O)Cc2cc3c(CN(C)C)c(O)ccc3nc2-1,,"human patients, plasma","oral, 4 mg, geometric mean, with: pazopanib 800 mg",,16.5 ng/mL
O=C(c1nc2n(n1)[C@H](c1ccccc1)C[C@@H]2F)C1CC1,,"humans, plasma","oral, 75 mg single dose, high-fat meal",,946 ng/mL
CON(C)C(=O)N1N=C(c2cc(F)ccc2F)S[C@@]1(CCCN)c1ccccc1,,human,"intravenous, 1.2 mg/m^2, cycle 1 day 3, geometric mean",,29.8 ng/mL
C[C@@H](c1nc(-c2ccc(C#N)cc2)cs1)[C@](O)(Cn1cncn1)c1cc(F)ccc1F,,"human, both sexes, plasma","oral, 200 mg single dose, with: ketoconazole 200 mg BID",,2400 ng/mL
CC(C)NC[C@@H](C(=O)N1CCN(c2ncnc3c2[C@H](C)C[C@H]3O)CC1)c1ccc(Cl)cc1,,"human, normal hepatic function, plasma","oral, 100 mg single dose, reference group versus Severe",reference: NCI classification,50.6 ng/mL
O=C([O-])CCCCCCCNC(=O)c1ccccc1O.[Na+],,"human, mild hepatic impairment, plasma","oral, once daily, day 10, after dose 10, geometric mean",,1260 ng/mL
Cc1ccc(NC(=O)c2ccc(CN3CCN(C)CC3)cc2)cc1Nc1nccc(-c2cncc(-c3oncc3C)c2)n1,,"older healthy human adults, plasma","oral, 100 mg single dose, fed, mean",,5320 ng/mL
NS(=O)(=O)OC[C@@H]1C[C@@H](n2ccc3c(N[C@H]4CCc5ccccc54)ncnc32)C[C@@H]1O,,human,"intravenous, 8 mg/m^2, day 1",,59.1 ng/mL
O=C(O)CNC(=O)c1c(O)c2ccccc2n(OCC2CC2)c1=O,LC-MS/MS,"human, blood","oral, 300 mg multiple doses",,2340 ± 788 ng/mL
COc1cc(Nc2ncc3c(n2)-c2ccc(Cl)cc2C(c2c(F)cccc2OC)=NC3)ccc1C(=O)O,,"human, plasma","oral, 50 mg single, fed",,1300 nM
Cc1ccc(NC(=O)c2ccc(CN3CCNCC3)cc2)cc1Nc1nccc(-c2cccnc2)n1,,"human patients, plasma","oral, 400 mg/day of imatinib, day 10 of cycle 1",,521 ng/mL
COc1cc(N2CCC(N3CCN(C)CC3)CC2)ccc1Nc1ncc(Cl)c(Nc2ccccc2P(C)(C)=O)n1,,"healthy humans, plasma","oral, 180 mg, alone, single dose",,863 ng/mL
Cn1cnc2c(F)c(Nc3ccc(Br)cc3Cl)c(C(=O)NOCCO)cc21,,"human cancer patients, plasma","oral, 75 mg, cycle 1 day 1",,1500 ng/mL
COC(=O)N[C@@H](C)CNc1nccc(-c2cn(C(C)C)nc2-c2cc(Cl)cc(NS(C)(=O)=O)c2F)n1,,"human, plasma","oral, 450 mg QD, day 1, geometric mean, with: binimetinib 45 mg BID",,6060 ng/mL
CCCCCCCCCCCCCCC[C@H](O)[C@@H](N)CO,,"human, phase I, plasma","intravenous, 360 mg/m^2, day 1, monotherapy",,16100 nM
C=C(C)[C@@H]1CC[C@]2(NCCN3CCS(=O)(=O)CC3)CC[C@]3(C)[C@H](CC[C@@H]4[C@@]5(C)CC=C(C6=CC[C@@](CF)(C(=O)O)CC6)C(C)(C)[C@@H]5CC[C@]43C)[C@@H]12,,"healthy human volunteers, plasma","oral, 200 mg, tablet, moderate-fat state, mean",,1510 ng/mL
COc1c(N2C[C@@H]3CCCN[C@@H]3C2)c(F)cc2c(=O)c(C(=O)O)cn(C3CC3)c12,,human,"oral, 400 mg single dose, geometric mean",,1960 ng/mL
CC(C)n1nc(-c2ccc3oc(N)nc3c2)c2c(N)ncnc21,,"human, plasma","oral, 30 mg once weekly, cycle 1 day 15",,379 ng/mL
O=C(/C=C/c1cccc(S(=O)(=O)Nc2ccccc2)c1)NO[C@@H]1O[C@H](C(=O)O)[C@@H](O)[C@H](O)[C@H]1O,,"human mild liver dysfunction, plasma","intravenous, 400 mg/m^2, 30 min infusion, cycle 1 day -7, with: belinostat 400 mg/m^2 iv",,90800 ng/mL
CC#CC(=O)NCCCC(=O)c1nc(-c2ccc(C(=O)Nc3ccccn3)cc2)c2c(N)nccn12,,"human, severe hepatic impairment, plasma","oral, 50 mg acalabrutinib, single, total, geometric mean",,169 ng/mL
CC[C@H](C)[C@@H]1NC(=O)[C@H](CCCNC(=N)N)NC(=O)[C@H](CC(=O)O)NC(=O)[C@H](CC(C)C)NC(=O)[C@H](CCCCN)NC(=O)[C@H](CC(C)C)NC(=O)CNC(=O)[C@H](Cc2ccccc2)NC(=O)[C@@H](NC(=O)CNC(=O)[C@H](CCCCN)NC(=O)[C@H](CO)NC(=O)[C@H](CC(C)C)NC(=O)CNC(=O)[C@H](CCCCN)NC(=O)[C@H](CCCCN)NC(=O)[C@H](CC(N)=O)NC(=O)[C@H](C)NC(=O)CNC(=O)[C@H](CCCCN)NC(=O)[C@H](Cc2ccc(O)cc2)NC(=O)[C@H](CCCCN)NC(=O)[C@H](CCCNC(=N)N)NC(=O)[C@H](C)NC(=O)[C@H](CC(N)=O)NC(=O)[C@@H]2CCCN2C(=O)[C@H](Cc2c[nH]cn2)NC(=O)[C@H](CCC(=O)O)NC(=O)[C@H](CCC(N)=O)NC(=O)CNC(=O)[C@@H]2CCCN2)CSSC[C@@H](C(=O)O)NC(=O)CNC(=O)[C@H](CC(C)C)NC(=O)CNC(=O)[C@H](CO)NC(=O)[C@H](CCSC)NC(=O)[C@H](CO)NC(=O)CNC1=O,,"human, plasma","subcutaneous, 15 µg/kg once daily, week 52",,5.8 ng/mL
Nc1ccc(-c2nc([C@H]3CCc4cc(-c5cc(Cl)ccc5-n5cnnn5)cc(=O)n43)c(F)[nH]2)c(F)n1,,"human, plasma","oral, 250 mg once daily, fed, day 14",,3700 ng/mL
C[C@@H]1COC(Nc2ccc3ncnc(Nc4ccc(OCc5nccs5)c(Cl)c4)c3c2)=N1,,"human patients, plasma","oral, 300 mg intermittent, cycle 1",,2740 ± 1440 ng/mL
CC1(C)CCC(CN2CCN(c3ccc(C(=O)NS(=O)(=O)c4ccc(NCC5CCOCC5)c([N+](=O)[O-])c4)c(Oc4cnc5[nH]ccc5c4)c3)CC2)=C(c2ccc(Cl)cc2)C1,,"human, plasma","oral, 600 mg, steady state, with: idasanutlin 200 mg",,1150 ng/mL
CC(C)[C@@H](CS(=O)(=O)C(C)C)N1C(=O)[C@@](C)(CC(=O)O)C[C@H](c2cccc(Cl)c2)[C@H]1c1ccc(Cl)cc1,,"human, plasma","oral, 60 mg, old tablet, fasted, geometric LS mean",,337 ng/mL
CCOC(=O)C1=C[C@@H](OC(CC)CC)[C@H](NC(C)=O)[C@@H](N)C1,,"healthy Indian human, plasma","oral, 75 mg single, Tamiflu reference capsule fed",,36 ± 10 ng/mL
CS(=O)(=O)n1cc2c(n1)CN([C@H]1CO[C@H](c3cc(F)ccc3F)[C@@H](N)C1)C2,,"healthy male human, plasma","oral, 50 mg once weekly, day 15, fasted, geometric mean",,1080 nM
CCOc1cc([C@@H](CS(C)(=O)=O)N2C(=O)c3cccc(NC(C)=O)c3C2=O)ccc1OC,,"human, plasma","oral, 30 mg twice daily, steady state, mean, with: methotrexate",,564 ng/mL
CC(C)c1nc(N(C)S(C)(=O)=O)nc(-c2ccc(F)cc2)c1/C=C/[C@@H](O)C[C@@H](O)CC(=O)O,,"humans, plasma","oral, 20 mg, geometric mean, with: fenebrutinib 200 mg twice daily",,43.1 ng/mL
CCOc1c([C@H](C)n2nc(C)c3c(N)ncnc32)cc(Cl)c(F)c1[C@@H]1CNC(=O)C1,,"healthy fasted humans, plasma","oral, 10 mg",,793 ± 169 nM
COc1ccc2nc([S@@+]([O-])Cc3ncc(C)c(OC)c3C)[nH]c2c1,,"human, CYP2C19 poor metabolizers, plasma","oral, 40 mg/day, day 1",,9310 ± 4860 ng/mL
Cc1nc(-c2ccc(OCC(C)C)c(C#N)c2)sc1C(=O)O,,"human male, plasma","oral, 40 mg once daily, day 7 or 21, geometric mean",,736 ng/mL
CNCc1ccc(-c2[nH]c3cc(F)cc4c3c2CCNC4=O)cc1,,"human cancer patients, plasma","intravenous, 4 mg/m2, day 4, with: temozolomide 100",,159 ng/mL
CCCCOC(=O)N1CCN(C(=O)[C@H](CP(=O)(O)O)NC(=O)c2cc(N3CC[C@H](OC)C3)nc(-c3ccccc3)n2)CC1,,"healthy human, plasma","subcutaneous, 4 mg, placebo i.v.",geometric mean,177 ng/mL
CC#CC(=O)N1CC[C@@H](n2c(=O)n(-c3ccc(Oc4ccccc4)cc3)c3c(N)ncnc32)C1,,"human, fasting, plasma","oral, 320 mg once daily, cycle 1 day 28",,971 ng/mL
Cc1nc2cccc(N)c2c(=O)n1C1CCC(=O)NC1=O (stereo not drawn),,"healthy adult human, plasma","oral, 3 mg, geometric mean, with: itraconazole 200 mg once daily",,66.3 ng/mL
Nc1ccn([C@@H]2O[C@H](CO)[C@@H](O)C2(F)F)c(=O)n1,,"human cancer patients, plasma","intravenous, 750 mg/m^2, cycle 1 day 15, with: lonafarnib 150 mg twice daily",,11700 ng/mL
CCCCC1(CCCC)CN(c2ccccc2)c2cc(SC)c(OCC(=O)N[C@@H](C(=O)NCC(=O)O)c3ccccc3)cc2S(=O)(=O)C1,LC-MS/MS,"human, plasma","oral, 20 mg, single dose, before breakfast",,0.692 ng/mL
Cc1cc(-c2nnc(N)nc2-c2ccc(F)cc2)cc(Cl)n1,,"human patients, plasma","oral, 200 mg capsule, single dose, arithmetic mean",,943 ng/mL
Cc1cc(C)c2c(c1)[C@@H](N(Cc1cc(C(F)(F)F)cc(C(F)(F)F)c1)c1nnn(C)n1)CCCN2C[C@H]1CC[C@H](C(=O)O)CC1,,"human, plasma","oral, 600 mg once daily, steady state, geometric mean",,1330 ng/mL
